{"data": "Experimental data gathered from unrelated publications", "note": "A part holds a random share of what one study measured. “And” joins repeats or separate records; there may be more than shown.", "chain of UniProt P42336 (whole entry, unmodified, looked up)": "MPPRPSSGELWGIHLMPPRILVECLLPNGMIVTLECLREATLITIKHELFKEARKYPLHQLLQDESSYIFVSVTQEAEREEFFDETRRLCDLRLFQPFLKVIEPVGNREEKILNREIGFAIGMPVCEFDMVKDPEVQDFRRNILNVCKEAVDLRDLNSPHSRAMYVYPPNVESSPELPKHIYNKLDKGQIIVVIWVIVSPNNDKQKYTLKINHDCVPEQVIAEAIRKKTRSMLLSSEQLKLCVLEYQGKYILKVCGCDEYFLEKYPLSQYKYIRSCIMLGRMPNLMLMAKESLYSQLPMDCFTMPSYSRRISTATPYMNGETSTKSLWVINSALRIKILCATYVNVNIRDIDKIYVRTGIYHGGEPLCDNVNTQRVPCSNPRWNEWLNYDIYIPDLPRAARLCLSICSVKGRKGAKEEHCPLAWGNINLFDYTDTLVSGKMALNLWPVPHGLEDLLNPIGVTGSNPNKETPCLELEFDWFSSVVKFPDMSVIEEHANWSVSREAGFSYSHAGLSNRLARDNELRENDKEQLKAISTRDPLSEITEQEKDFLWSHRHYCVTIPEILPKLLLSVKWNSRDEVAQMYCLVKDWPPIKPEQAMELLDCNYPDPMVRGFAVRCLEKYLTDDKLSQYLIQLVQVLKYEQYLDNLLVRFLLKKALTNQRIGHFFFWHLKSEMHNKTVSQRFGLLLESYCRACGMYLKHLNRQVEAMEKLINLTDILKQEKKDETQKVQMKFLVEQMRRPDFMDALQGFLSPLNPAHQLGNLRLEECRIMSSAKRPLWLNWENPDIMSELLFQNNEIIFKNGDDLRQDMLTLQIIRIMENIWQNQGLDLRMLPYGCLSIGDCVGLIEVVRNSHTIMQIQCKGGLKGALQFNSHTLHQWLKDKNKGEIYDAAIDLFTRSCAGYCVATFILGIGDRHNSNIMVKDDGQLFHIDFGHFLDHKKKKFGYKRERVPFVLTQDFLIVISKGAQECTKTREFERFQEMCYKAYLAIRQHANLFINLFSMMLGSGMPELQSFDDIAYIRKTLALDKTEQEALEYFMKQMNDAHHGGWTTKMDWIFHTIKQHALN", "chain of UniProt O43293 (whole entry, looked up)": "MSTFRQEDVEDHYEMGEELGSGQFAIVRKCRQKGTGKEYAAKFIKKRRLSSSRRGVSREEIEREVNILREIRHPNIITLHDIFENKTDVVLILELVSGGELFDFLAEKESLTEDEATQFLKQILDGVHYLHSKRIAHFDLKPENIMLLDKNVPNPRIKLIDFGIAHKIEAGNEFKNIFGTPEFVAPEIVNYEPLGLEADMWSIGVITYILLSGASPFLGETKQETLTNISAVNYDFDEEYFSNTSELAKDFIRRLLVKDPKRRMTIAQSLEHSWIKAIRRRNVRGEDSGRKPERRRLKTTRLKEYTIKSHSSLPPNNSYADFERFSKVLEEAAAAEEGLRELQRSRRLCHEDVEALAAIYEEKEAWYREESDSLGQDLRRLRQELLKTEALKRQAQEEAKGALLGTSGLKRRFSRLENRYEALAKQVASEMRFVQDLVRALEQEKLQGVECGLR", "chain of UniProt Q9Y2I7 (whole entry, looked up)": "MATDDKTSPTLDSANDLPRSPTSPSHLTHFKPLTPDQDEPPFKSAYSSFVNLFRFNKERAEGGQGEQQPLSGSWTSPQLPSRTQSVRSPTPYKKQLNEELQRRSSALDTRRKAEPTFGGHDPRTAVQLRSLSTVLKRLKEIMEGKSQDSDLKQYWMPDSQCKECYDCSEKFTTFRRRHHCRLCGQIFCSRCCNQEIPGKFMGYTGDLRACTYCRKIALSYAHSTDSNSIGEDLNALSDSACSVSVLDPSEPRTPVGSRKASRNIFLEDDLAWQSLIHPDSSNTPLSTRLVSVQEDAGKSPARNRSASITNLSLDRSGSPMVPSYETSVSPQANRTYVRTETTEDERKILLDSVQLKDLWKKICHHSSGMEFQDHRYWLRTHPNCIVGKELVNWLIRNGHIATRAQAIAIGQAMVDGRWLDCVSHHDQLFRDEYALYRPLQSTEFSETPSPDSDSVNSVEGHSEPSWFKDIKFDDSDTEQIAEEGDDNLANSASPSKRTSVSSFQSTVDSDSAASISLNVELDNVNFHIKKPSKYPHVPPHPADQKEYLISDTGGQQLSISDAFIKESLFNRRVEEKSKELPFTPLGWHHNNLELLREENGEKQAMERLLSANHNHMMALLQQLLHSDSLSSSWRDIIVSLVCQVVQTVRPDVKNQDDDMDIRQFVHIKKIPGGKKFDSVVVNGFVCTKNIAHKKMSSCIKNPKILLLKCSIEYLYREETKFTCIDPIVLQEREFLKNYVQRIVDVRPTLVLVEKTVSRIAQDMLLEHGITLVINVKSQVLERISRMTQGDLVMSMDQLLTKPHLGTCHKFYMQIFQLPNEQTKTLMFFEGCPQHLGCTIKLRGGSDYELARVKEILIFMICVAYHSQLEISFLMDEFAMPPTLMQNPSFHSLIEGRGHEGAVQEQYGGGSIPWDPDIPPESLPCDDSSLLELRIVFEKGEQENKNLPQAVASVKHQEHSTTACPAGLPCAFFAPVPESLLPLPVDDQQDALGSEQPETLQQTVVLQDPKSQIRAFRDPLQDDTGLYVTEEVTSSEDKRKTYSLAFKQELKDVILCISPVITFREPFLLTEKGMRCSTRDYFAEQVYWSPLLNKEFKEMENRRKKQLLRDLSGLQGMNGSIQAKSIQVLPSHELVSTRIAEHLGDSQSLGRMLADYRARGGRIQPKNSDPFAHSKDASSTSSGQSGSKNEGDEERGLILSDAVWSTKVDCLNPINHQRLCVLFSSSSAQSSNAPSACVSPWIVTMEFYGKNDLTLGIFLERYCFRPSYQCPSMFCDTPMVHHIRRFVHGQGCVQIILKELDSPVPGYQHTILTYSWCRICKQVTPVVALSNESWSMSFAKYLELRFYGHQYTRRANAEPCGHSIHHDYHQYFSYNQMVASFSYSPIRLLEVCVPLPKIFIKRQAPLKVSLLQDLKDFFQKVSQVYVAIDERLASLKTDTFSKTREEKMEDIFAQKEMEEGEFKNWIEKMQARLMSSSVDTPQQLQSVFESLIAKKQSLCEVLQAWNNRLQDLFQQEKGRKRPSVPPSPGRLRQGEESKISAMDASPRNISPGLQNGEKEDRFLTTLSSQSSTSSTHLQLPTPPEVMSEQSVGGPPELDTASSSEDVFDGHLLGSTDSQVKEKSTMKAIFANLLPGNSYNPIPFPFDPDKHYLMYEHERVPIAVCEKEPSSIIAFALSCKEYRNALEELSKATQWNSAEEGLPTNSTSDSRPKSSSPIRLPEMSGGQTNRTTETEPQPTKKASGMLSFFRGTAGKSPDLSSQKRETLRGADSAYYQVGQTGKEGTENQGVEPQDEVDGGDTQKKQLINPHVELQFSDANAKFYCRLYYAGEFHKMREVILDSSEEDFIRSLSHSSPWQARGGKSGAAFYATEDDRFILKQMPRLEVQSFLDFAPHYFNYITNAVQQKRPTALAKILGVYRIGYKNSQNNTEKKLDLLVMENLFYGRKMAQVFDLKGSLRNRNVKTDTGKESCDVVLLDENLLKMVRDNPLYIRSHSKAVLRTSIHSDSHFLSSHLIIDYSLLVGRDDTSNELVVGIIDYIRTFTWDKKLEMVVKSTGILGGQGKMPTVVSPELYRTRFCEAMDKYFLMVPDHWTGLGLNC", "chain of UniProt Q9HBY8 (whole entry, looked up)": "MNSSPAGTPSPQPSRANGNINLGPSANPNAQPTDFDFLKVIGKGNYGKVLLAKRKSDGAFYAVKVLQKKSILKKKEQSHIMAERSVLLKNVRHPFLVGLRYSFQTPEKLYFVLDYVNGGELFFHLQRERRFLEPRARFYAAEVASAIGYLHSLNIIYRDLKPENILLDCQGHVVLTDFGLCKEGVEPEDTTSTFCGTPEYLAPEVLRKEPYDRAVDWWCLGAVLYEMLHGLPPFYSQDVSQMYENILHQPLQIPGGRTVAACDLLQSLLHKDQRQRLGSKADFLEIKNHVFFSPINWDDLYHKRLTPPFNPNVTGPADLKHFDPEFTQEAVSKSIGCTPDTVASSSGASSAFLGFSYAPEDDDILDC"}
{"data": "Sample 1", "cell line": "mouse MPNST tumor cells", "technique": "high-content immunofluorescence imaging", "item": "nuclear SOX9", "tested at": "10 µM", "time": "12 h", "setting": "mean of 2 replicates", "relative to": "DMSO control", "reading": "higher = more nuclear SOX9"}
{"Structure (SMILES)": "Cc1ccc(-c2cc(C(F)(F)F)nn2-c2ccc(S(N)(=O)=O)cc2)cc1", "nuclear SOX9 intensity": "100 % of DMSO and 102 % of DMSO"}
{"Structure (SMILES)": "CC[N+](C)(CC)CCC[n+]1c(-c2ccccc2)c2cc(N)ccc2c2ccc(N)cc21", "nuclear SOX9 intensity": "97.7 % of DMSO"}
{"Structure (SMILES)": "N[C@@H](CC(=O)N1CCn2c(nnc2C(F)(F)F)C1)Cc1[nH]nc2c(F)c(F)ccc12", "nuclear SOX9 intensity": "109 % of DMSO"}
{"Structure (SMILES)": "C1CCC(N=C(NC23CC4CC(CC(C4)C2)C3)N2CCOCC2)CC1", "nuclear SOX9 intensity": "103 % of DMSO"}
{"Structure (SMILES)": "CNC(=O)Nc1ccc2c(c1)CC[C@@]21OC(=O)N(CC(=O)N(Cc2ccc(F)cc2)[C@@H](C)C(F)(F)F)C1=O", "nuclear SOX9 intensity": "102 % of DMSO and 98.9 % of DMSO"}
{"data": "Sample 2", "host": "human", "medium": "microsomes or S9", "tested at": "2 µM", "time": "0.5 h"}
{"Compound": "O=C(CN1C(=O)CC2(CCCC2)C1=O)Nc1cccc(-c2nc[nH]n2)c1", "remaining compound [%]": 61.8}
{"Compound": "CCOC(=O)/C=N/N(c1ccccc1)c1ccccc1[N+](=O)[O-]", "remaining compound [%]": 2.53}
{"Compound": "COc1ccc(-c2c(-c3ccccc3)nn(-c3ccc(C)cc3)c2N)cc1OC", "remaining compound [%]": 74}
{"Compound": "Cn1ncc2c(NCc3cc4ccccc4[nH]3)nc(-c3ccccn3)nc21", "remaining compound [%]": 18.4}
{"Compound": "COc1cccc(N2CCN(c3ncnc4[nH]cnc34)CC2)c1", "remaining compound [%]": 78.6}
{"Compound": "O=S(=O)(Nc1ccc(Br)cc1)C1CCCCC1O (centres unmarked)", "remaining compound [%]": 63}
{"Compound": "O=C(CC1(O)C(=O)Nc2cc(Cl)cc(Cl)c21)c1ccccc1 (centres unmarked)", "remaining compound [%]": 58.1}
{"data": "Sample 3", "Compound": "C=CCc1ccc(O)c(-c2cc(CC=C)ccc2O)c1", "target": "Anoctamin-1 (ANO1, Homo sapiens, UniProt Q5XXA6, del476-501)", "read-out": "chloride current", "technique": "whole-cell patch clamp", "chain of UniProt Q5XXA6 (whole entry, unmodified, looked up)": "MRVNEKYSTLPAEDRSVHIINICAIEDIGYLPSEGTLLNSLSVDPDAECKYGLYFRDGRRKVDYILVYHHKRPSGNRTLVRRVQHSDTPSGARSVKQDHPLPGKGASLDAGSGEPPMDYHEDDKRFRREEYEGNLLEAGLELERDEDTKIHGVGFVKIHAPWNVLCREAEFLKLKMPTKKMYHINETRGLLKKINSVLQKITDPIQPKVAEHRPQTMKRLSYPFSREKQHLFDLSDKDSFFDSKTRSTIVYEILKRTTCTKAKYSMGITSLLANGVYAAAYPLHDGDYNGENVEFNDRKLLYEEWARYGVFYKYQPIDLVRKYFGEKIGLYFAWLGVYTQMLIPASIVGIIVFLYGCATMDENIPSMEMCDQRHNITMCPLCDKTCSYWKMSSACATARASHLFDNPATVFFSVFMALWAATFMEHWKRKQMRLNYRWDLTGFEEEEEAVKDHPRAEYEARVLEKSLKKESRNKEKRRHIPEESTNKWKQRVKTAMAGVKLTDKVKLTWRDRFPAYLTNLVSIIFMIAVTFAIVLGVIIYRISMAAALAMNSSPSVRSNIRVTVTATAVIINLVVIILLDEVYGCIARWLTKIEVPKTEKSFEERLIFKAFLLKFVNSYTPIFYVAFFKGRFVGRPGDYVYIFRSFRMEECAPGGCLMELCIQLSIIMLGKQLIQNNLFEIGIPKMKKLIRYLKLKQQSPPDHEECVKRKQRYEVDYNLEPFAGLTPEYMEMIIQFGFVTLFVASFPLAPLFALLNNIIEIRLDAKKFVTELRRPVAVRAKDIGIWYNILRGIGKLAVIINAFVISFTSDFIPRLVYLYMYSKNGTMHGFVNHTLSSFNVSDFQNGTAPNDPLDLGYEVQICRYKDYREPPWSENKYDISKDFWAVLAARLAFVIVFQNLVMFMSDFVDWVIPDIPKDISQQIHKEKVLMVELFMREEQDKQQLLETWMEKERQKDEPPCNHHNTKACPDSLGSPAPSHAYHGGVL"}
{"tested at": "10 µM", "setting": "-80 mV, 300 nM free Ca2+", "normalised current": -0.0701}
{"tested at": "3 µM", "setting": "40 mV, 300 nM free Ca2+", "normalised current": 0.192}
{"tested at": "10 µM", "setting": "-100 mV, 300 nM free Ca2+", "normalised current": -0.0751}
{"data": "Sample 4", "cell line": "A-375", "tested at": "100 µM", "time": "18 h"}
{"Compound": "CNC1(C)C2CCC(C2)C1(C)C (centres unmarked)", "viability [%]": 107}
{"Compound": "CC[C@H]1OC(=O)[C@H](C)[C@@H](O[C@H]2C[C@@](C)(OC)[C@@H](O)[C@H](C)O2)[C@H](C)[C@@H](O[C@@H]2O[C@H](C)C[C@H](N(C)C)[C@H]2O)[C@](C)(O)C[C@@H](C)CN(C)[C@H](C)[C@@H](O)[C@]1(C)O", "viability [%]": 89}
{"Compound": "CN1C[C@@H]2C[C@H]1CN2c1cc2c(cc1F)c(=O)c(C(=O)O)cn2C1CC1", "viability [%]": 75}
{"Compound": "C[C@H](CCC(=O)O)[C@H]1CC[C@H]2[C@@H]3CC[C@@H]4C[C@H](O)CC[C@]4(C)[C@H]3CC[C@]12C", "viability [%]": 80.5}
{"Compound": "CCOC(=O)C1=C(C)NC(C)=C(C(=O)OC)C1c1cccc(Cl)c1Cl (centres unmarked)", "viability [%]": 9.45}
{"data": "Sample 5", "SMILES": "O=C(O)[C@@H]1[C@@H](Cn2nnc3ccccc3c2=O)CC[C@H]1C(=O)c1ccc(OCCC2CCOCC2)cc1", "technique": "competition with immobilised ligand", "tested at": "1 µM"}
{"target": "Interleukin-1 receptor-associated kinase 1 (IRAK1, Homo sapiens, UniProt P51617)", "read-out": "cell-free assay", "remaining binding": "82%"}
{"target": "Mitogen-activated protein kinase kinase kinase kinase 2 (MAP4K2, Homo sapiens, UniProt Q12851)", "read-out": "cell-free assay", "remaining binding": "97%"}
{"target": "Activin receptor type-2B (ACVR2B, Homo sapiens, UniProt Q13705)", "read-out": "binding", "remaining binding": "100%"}
{"target": "Tyrosine-protein kinase ABL2 (ABL2, Homo sapiens, UniProt P42684)", "read-out": "cell-free assay", "remaining binding": "92%"}
{"target": "Mast/stem cell growth factor receptor Kit (KIT, Homo sapiens, UniProt P10721, V559D)", "read-out": "cell-free assay", "remaining binding": "100%"}
{"target": "Serine/threonine-protein kinase MAK (MAK, Homo sapiens, UniProt P20794)", "read-out": "binding", "remaining binding": "78%"}
{"target": "Homeodomain-interacting protein kinase 1 (HIPK1, Homo sapiens, UniProt Q86Z02)", "read-out": "cell-free assay", "remaining binding": "91%"}
{"target": "NUAK family SNF1-like kinase 2 (NUAK2, Homo sapiens, UniProt Q9H093)", "read-out": "cell-free assay", "remaining binding": "100%"}
{"target": "Ribosomal protein S6 kinase alpha-1, C-terminal kinase domain (RPS6KA1, Homo sapiens, UniProt Q15418)", "read-out": "cell-free assay", "remaining binding": "92%"}
{"target": "Dual specificity tyrosine-phosphorylation-regulated kinase 2 (DYRK2, Homo sapiens, UniProt Q92630)", "read-out": "cell-free assay", "remaining binding": "90%"}
{"target": "Phosphatidylinositol 4,5-bisphosphate 3-kinase catalytic subunit alpha isoform (PIK3CA, Homo sapiens, UniProt P42336, M1043I)", "read-out": "cell-free assay", "remaining binding": "100%"}
{"target": "Serine/threonine-protein kinase Sgk2 (SGK2, Homo sapiens, UniProt Q9HBY8)", "read-out": "cell-free assay", "remaining binding": "79%"}
{"target": "Death-associated protein kinase 3 (DAPK3, Homo sapiens, UniProt O43293)", "read-out": "cell-free assay", "remaining binding": "100%"}
{"target": "Bone morphogenetic protein receptor type-2 (BMPR2, Homo sapiens, UniProt Q13873)", "read-out": "cell-free assay", "remaining binding": "98%"}
{"target": "Epidermal growth factor receptor (EGFR, Homo sapiens, UniProt P00533, G719C)", "read-out": "cell-free assay", "remaining binding": "90%"}
{"target": "Phosphatidylinositol 4,5-bisphosphate 3-kinase catalytic subunit alpha isoform (PIK3CA, Homo sapiens, UniProt P42336, I800L)", "read-out": "cell-free assay", "remaining binding": "34%"}
{"target": "Mitogen-activated protein kinase 11 (MAPK11, Homo sapiens, UniProt Q15759)", "read-out": "cell-free assay", "remaining binding": "99%"}
{"target": "STE20/SPS1-related proline-alanine-rich protein kinase (STK39, Homo sapiens, UniProt Q9UEW8)", "read-out": "cell-free assay", "remaining binding": "96%"}
{"target": "1-phosphatidylinositol 3-phosphate 5-kinase (PIKFYVE, Homo sapiens, UniProt Q9Y2I7)", "read-out": "cell-free assay", "remaining binding": "87%"}
{"target": "Serine/threonine-protein kinase ULK2 (ULK2, Homo sapiens, UniProt Q8IYT8)", "read-out": "cell-free assay", "remaining binding": "90%"}
{"data": "Mixed results"}
{"SMILES": "Cc1cc2c(C(N)=O)c(N)n(-c3c(C)ccc(O)c3C)c2nc1C", "technique": "KINOMEscan", "medium": "403 non-mutant kinase panel", "tested at": "1000 nM", "setting": "percent of control below 10", "measurement": "number of kinases bound", "result": 29}
{"note": "Repeated from above (sample 5):"}
{"target": "Mitogen-activated protein kinase kinase kinase kinase 2 (MAP4K2, Homo sapiens, UniProt Q12851)", "read-out": "cell-free assay", "remaining binding": "97%"}
{"target": "Activin receptor type-2B (ACVR2B, Homo sapiens, UniProt Q13705)", "read-out": "binding", "remaining binding": "100%"}
{"target": "Tyrosine-protein kinase ABL2 (ABL2, Homo sapiens, UniProt P42684)", "read-out": "cell-free assay", "remaining binding": "92%"}
